Experimental data pooled from the literature.
Numbers after ± are the reported error. Converted amounts (≈) assume the structure as drawn.

`COc1cc2nc(NC3CCN(Cc4ccc(C(N)=O)cc4)CC3)nc(Oc3c(C)cc(C#N)cc3C)c2cc1OC` gave a selectivity index of < 1 (HIV-1; MTT; MT4, RT L100I/V179D/Y181C mutant; baseline: CC50 over EC50).
`CC[C@H](C)[C@H](NC(=O)[C@H](CCCCN)NC(=O)[C@H](CCCCN)NC(=O)[C@H](Cc1ccccc1)NC(=O)[C@H](Cc1ccccc1)NC(=O)[C@H](CCCCN)NC(=O)[C@H](CCCCN)NC(=O)[C@H](Cc1ccccc1)NC(=O)[C@H](CCCNC(=N)N)NC(=O)[C@@H](N)CCCCN)C(=O)N[C@@H](CCCCN)C(=O)N[C@@H](CCCCN)C(=O)N[C@@H](CO)C(=O)N[C@H](C(=O)N[C@@H](CCCCN)C(=O)N[C@@H](CCCCN)C(=O)N[C@@H](CCCNC(=N)N)C(=O)N[C@H](C(=O)N[C@@H](CCCCN)C(=O)N[C@@H](CCCCN)C(=O)N[C@@H](CC(C)C)C(=O)N[C@@H](Cc1ccccc1)C(=O)N[C@@H](CCCCN)C(=O)N[C@@H](CCCCN)C(=O)N1CCC[C@H]1C(=O)N[C@@H](CCCNC(=N)N)C(=O)N[C@H](C(=O)N[C@H](C(=O)N1CCC[C@H]1C(=O)N[C@H](C(=O)N[C@@H](CO)C(=O)N[C@H](C(=O)N1CCC[C@H]1C(=O)N[C@@H](Cc1ccccc1)C(=O)O)[C@@H](C)CC)[C@@H](C)CC)[C@@H](C)CC)C(C)C)C(C)C)C(C)C` has an MIC of 4 µg/mL (≈ 0.948 µM) (Escherichia coli; E24; after heating at 37 °C).
With `c1ccc(Nc2ncnc3ccc(-c4cccc(N5CCOCC5)c4)cc23)cc1` the selectivity ratio was 1.3 (Trypanosoma cruzi; NIH 3T3; baseline: NIH 3T3 TC50 over T. cruzi EC50).
`Cc1cc(/C=C/C#N)cc(C)c1Oc1nc(NC2CCN(Cc3ccc(S(C)(=O)=O)cc3)CC2)nc2ncccc12` has a selectivity index of 64 (HIV-1; MTT; MT4, RT L100I/V179D/Y181C mutant; baseline: CC50 over EC50).
`Fc1cccc(COc2ccc(Nc3ncnc4ccc(-c5ccc(CN6CCCCC6)cc5)cc34)cc2Cl)c1` gave a selectivity ratio of 3.7 (Trypanosoma cruzi; NIH 3T3; baseline: NIH 3T3 TC50 over T. cruzi EC50).
`O=C(O)CCCOc1ccc(O)cc1-c1cc(-c2ccccc2C(F)(F)F)n(-c2ccccc2)n1` has a growth-inhibiting concentration of ≥ 2500 µg/plate (Salmonella typhimurium; Ames test; TA98; concentration not given, without S9 metabolic activation).
With `Cc1nc2cccc(OCC(C)(C)C(=O)NC(C)C)c2c(N)c1C(=O)[O-].[Na+]` the revertant colonies was 27 ± 8 colonies/plate (Salmonella typhimurium; reverse mutation, plate incorporation; TA98; 0.80 mg/plate, without S9).
The selectivity index of `CC1(F)CN(C(=O)Cn2c(=O)c(C(=O)NCc3ccc(Cl)cc3)cc3nc(N4CCN(CCN)C4=O)cnc32)C1` is reported as > 140 (human cytomegalovirus; GFP reporter; AD169-GFP; retest; baseline: CC50 over EC50).
`Fc1cccc(COc2ccc(Nc3ncnc4ccc(-c5cccc(CN6CCCCC6)c5)cc34)cc2Cl)c1` gave a selectivity ratio of 3 (Trypanosoma cruzi; NIH 3T3; baseline: NIH 3T3 TC50 over T. cruzi EC50).
`O=C(Oc1cc(OC(=O)c2cc(O)c(O)c(O)c2)c2ccccc2c1)c1cc(O)c(O)c(O)c1` gave a therapeutic index of 45.1 (Herpes simplex virus 2; Vero, acyclovir-resistant; baseline: CC50 over IC50).

Excerpt of the above:
`O=C(Oc1cc(OC(=O)c2cc(O)c(O)c(O)c2)c2ccccc2c1)c1cc(O)c(O)c(O)c1` gave a therapeutic index of 45.1 (Herpes simplex virus 2; Vero, acyclovir-resistant; baseline: CC50 over IC50).
